# Published values from different studies.
# Numbers after ± are the reported error.
Structure (SMILES),tested on,test,test system,setting,how to read,measurement,value
CN1CCC[C@]1(C)/C=C/S(=O)(=O)NC(=O)Nc1c2c(cc3c1CCC3)CCC2,,"item: Headache, possibly related",human,"oral, 100 mg twice daily, 14 days, multiple ascending dose",,subjects with adverse event,0%
O=C(Nc1cnccc1-c1ccc([18F])cc1)c1ccnc(NC(=O)C2CC2)c1,,ex vivo gamma counting,"GSK-3β transgenic mice, early-stage, feces","intravenous, 120 min, mean, P-gp inhibitor pretreatment, with: tariquidar 15 mg/kg iv",,SUV,6.64
CC[C@H](C)[C@H](NC(=O)[C@H](N)Cc1ccc(O)cc1)C(=O)N[C@H]1CSSC[C@@H](C(=O)N(C)[C@H](C(=O)N[C@@H](CCCCN)C(=O)N[C@@H](CCCCN)C(=O)N[C@@H](CCCCN)C(N)=O)[C@@H](C)CC)NC(=O)[C@H](CCCNC(=N)N)NC(=O)[C@H](Cc2c[nH]cn2)NC(=O)[C@H](C)NC(=O)CN(C)C(=O)[C@H](Cc2c[nH]c3ccccc23)NC(=O)[C@H](CC(=O)O)NC(=O)[C@H](CCC(N)=O)NC(=O)[C@H](Cc2cn(C)c3ccccc23)NC(=O)[C@H](C(C)C)NC1=O,,SPR-based competition,"cynomolgus monkey, vitreous","intravitreal, 500 µg single, one month after injection, mean of eyes",,concentration,~0.2 µM
C=CC(=O)Nc1cc(Nc2nccc(-c3c[nH]c4ccccc34)n2)c(OC)cc1N(C)CCN(C)C,,storage stability,human dried blood spot,"30 d, -80 °C, HQC level",,recovery,101%
COc1cc(Nc2ncnc3ccc(-c4ccc(S(=O)(=O)N5CCOCC5)cc4)cc23)ccc1OCc1cccc(F)c1,Leishmania major,"intracellular amastigote growth, luciferase",RAW264.7 macrophages,,,EC50,> 15 µM
N#C[C@@H]1CC(F)(F)CN1C(=O)CNC(=O)c1ccnc2c(NC(=O)[C@H](CCCCNC(=O)CCOCCOCCOCCOCCOCCOCCNC(=O)CN3CCN(CC(=O)[O-])CCN(CC(=O)[O-])CCN(CC(=O)[O-])CC3)NC(=O)CCCc3ccc(I)cc3)cccc12.[177Lu+3],,,human serum,"1 h, 37 °C, 177Lu-labelled",,radiochemical stability,98.9 ± 0.8%
O=C(N/N=C/c1ccc2c(ccc[n+]2Cc2ccccc2)c1)N/N=C/c1ccc2c(ccc[n+]2Cc2ccccc2)c1,hp2 hairpin duplex DNA,FRET melting,,1 µM,,ΔTm,2.1 ± 0.4 °C
O=C1c2sc(-c3ccc(N4CCC(F)C4)nc3F)nc2CCN1c1cccnc1 (stereo not drawn),,HPLC,"rhesus monkey, plasma","intravenous, 59.92 min",,parent fraction,0.148
CC[C@H](C)[C@@H]1NC(=O)[C@H](Cc2ccc(O)cc2)NC(=O)CCCSC[C@@H](C(=O)N(CC(=O)N[C@@H](CC(C)C)C(=O)NCC(N)=O)Cc2ccc(F)cc2)NC(=O)[C@H](CC(N)=O)NC(=O)[C@H](CCC(N)=O)NC1=O,,,"healthy human females, plasma","intranasal, 50 µg single dose",,Cmax,0.032 ng/mL
C=CC(=O)Nc1cc(Nc2nccc(-c3cn(C)c4ccccc34)n2)c(OC)cc1N(C)CCNC,,,"human, dried blood spots","270 ng/mL, 2 h, on ice, high QC level",,remaining compound,103%
Nc1ncnc2[nH]c(/C=C/c3ccc(Cl)cc3)nc12,,HPLC,"solution, dark",before light exposure,,purity,99.7%
COc1ccc2c(c1)CN(C(=O)CCN1CCC(Cc3ccccc3)CC1)CC[S+]2[O-] (stereo not drawn),,,human plasma,7500 ng/mL,,fu,0.268
CNc1cc(N)c(C(N)=O)cn1,,,"Han Wistar rats, male, plasma","oral, 30 mg/kg, 2.00 h",,plasma concentration,14.9 µM
C/C(N)=N/C(=N\S(=O)(=O)c1ccc(C(F)(F)F)cc1)N1C[C@H](c2ccccc2)C(c2ccc(Cl)cc2)=N1,,,"Beagle dog, plasma","oral, 24 mg/kg",,Cmax,1780 ng/mL
C=C(NC(=O)c1csc(-c2nc3c(cc2O)-c2nc(cs2)C(=O)NC(C(C)O)C(=O)NC(=C(C)OC)c2nc(cs2)C(=O)NC2c4nc(cs4)C(=O)NC(COC(=O)c4c5c6c(cccc6n4O)COC(=O)C(OC4CC(C)(O)C(N(C)C)C(C)O4)C2OC5)c2nc-3cs2)n1)C(N)=O (stereo not drawn),,,"female cynomolgus monkey, plasma","intravenous, 9 mg/kg, single dose, infusion",,Tmax,6.6 min
O=S(=O)(N[C@H]1CCO[C@@H](C2c3ccccc3CCc3ccccc32)C1)c1ccc(OC(F)(F)F)cc1,,,mouse,"oral, 30 mg/kg, 2 h",,brain/plasma ratio,1.33 ± 0.31
CCCCN1C(=O)c2cccc3c(NCCCCCN4CCOCC4)ccc(c23)C1=O,,,DMF,,,Stokes shift,86 nm
O=C(Nc1cnccc1-c1ccc([18F])nc1)c1ccnc(NC(=O)C2CC2)c1,,,"FVB/NJ mouse, both sexes, brain","intravenous, 15 min",,SUV,0.091
CC[C@H](C)[C@H](NC(=O)[C@H](Cc1ccc(O)cc1)NC(=O)[C@@H](NC(=O)[C@H](CCCNC(=N)N)NC(=O)[C@@H](N)CC(=O)O)C(C)C)C(=O)N[C@@H](Cc1c[nH]cn1)C(=O)N1CCC[C@H]1C(=O)O,,LC-MS/MS,"Sprague-Dawley rat, both sexes, plasma","subcutaneous, 10 mg/kg/day, day 0, 2 h, 120 min",,plasma concentration,1.53 ng/mL
Cc1ccc(OCC(=O)N(Cc2cccs2)c2ccn[nH]2)cc1,,,Gottingen pig plasma,"750 ng/mL, 24 h, 37 °C",,remaining compound,91.7%
COc1cccc(OC)c1-c1cc(C(=O)NC2(C(=O)O)C3CC4CC(C3)CC2C4)nn1-c1ccc(C(=O)N(C)CCCN(C)C(=O)[C@H](CCCCNC(=O)[C@H](CC(C)C)NC(=O)C2OC2C(=O)O)NC(=O)CN2CCN(CC(=O)[O-])CCN(CC(=O)[O-])CCN(CC(=O)[O-])CC2)cc1C(C)C.[177Lu+3] (mixture of isomers),,,mouse HT-29 xenograft,"24 h, biodistribution",baseline: tumour over stomach,tumour-to-stomach ratio,27.5
N#C[C@@H]1CC(F)(F)CN1C(=O)CNC(=O)c1ccnc2c(NC(=O)CCOCCOCCOCCOCCOCCOCCNC(=O)C(CCCCNC(=O)CN3CCN(CC(=O)[O-])CCN(CC(=O)[O-])CCN(CC(=O)[O-])CC3)NC(=O)CCCc3ccc(I)cc3)cccc12.[68Ga+3] (stereo partly drawn),,,PBS,"120 min, 37 °C, 68Ga-labelled",,radiochemical stability,98.45 ± 0.5%
CCC1(CC)CC(=O)N(C2CCOc3ccc(C(=O)NC4CC(C)(C)Oc5ccccc54)cc32)C(=N)N1 (stereo not drawn),,,"male beagle dog, plasma",intravenous,,Vd,4.5 L/kg
Cc1nc(N)nc2c1C(=O)N[C@@H](c1ccc(F)cc1-c1cccc(O[11CH3])n1)C2,,ex vivo biodistribution,"healthy mice, intestines","60 min post-injection, baseline, vehicle pre-treatment",,tracer uptake,20.7 ± 1.9 %ID
O=C(N/N=C/c1cc[n+](Cc2ccccc2)c2ccccc12)c1ccc2ccc(C(=O)N/N=C/c3cc[n+](Cc4ccccc4)c4ccccc34)nc2n1,hp2 hairpin duplex DNA,FRET melting,,"1 µM, with: ds26 10 µM",,ΔTm,0.8 ± 0.2 °C
COc1ccc(Nc2nc(Nc3ccc(OCCOCC[18F])cc3)ncc2Br)cc1,,,"ICR mice, S180 tumour","intravenous, 370 kBq, 60 min",baseline: tumour over muscle,uptake ratio,1.72
CN1CCN(c2cccc(-c3ccc4ncnc(Nc5ccc(OCc6cccc(F)c6)c(Cl)c5)c4c3)c2)CC1,Leishmania major,"intracellular amastigote growth, luciferase",RAW264.7 macrophages,,,EC50,4.2 µM
CCCCN1C(=O)c2cccc3c(NCCN4CCOCC4)ccc(c23)C1=O,,,chloroform,,,Stokes shift,69 nm
N#C[C@@H]1CC(F)(F)CN1C(=O)CNC(=O)c1ccnc2c(NC(=O)[C@@H](N)CCCCNC(=O)CCOCCOCCOCCOCCOCCOCCNC(=O)CN3CCN(CC(=O)[O-])CCN(CC(=O)[O-])CCN(CC(=O)[O-])CC3)cccc12.[177Lu+3],,,PBS,"4 h, 37 °C, 177Lu-labelled",,radiochemical stability,99.08 ± 0.8%
CCc1cnc(NC(=O)c2cc(S(=O)(=O)N3CCOCC3)ccc2N(C)C2CCCC2)s1,,,mouse,"10 mg/kg, 3 doses",,serum globulin,2.4 g/dL
O=C([O-])CN1CCN(CC(=O)[O-])CCN(CC(CCCc2ccccc2[N+](=O)[O-])N(CC(=O)[O-])CC(=O)[O-])CC1.[90Y+3] (stereo not drawn),,HPLC,human serum,"0 h, pH 7, 37 °C",,intact radiolabelled complex,100%
C#CCCCC/C=C/C(=O)NC1(c2ccc(-c3nc4ccn5c(=O)[nH]nc5c4cc3-c3ccccc3)cc2)CCC1,,,"microsomes, liver, mouse CD-1","1 µM, pH 7.4, 37 °C, phosphate buffer 100 mM, with: NADPH",,first-order rate constant,-0.029 min⁻¹
CCCCN1C(=O)c2cccc3c(NCCCCCCCCCCN4CCOCC4)ccc(c23)C1=O,,,methanol,,,Stokes shift,95 nm
Cc1nc2cccc(OCC(C)(C)C(=O)NC(C)C)c2c(N)c1C(=O)[O-].[Na+],,,"male Sprague-Dawley rat, plasma","oral, 30 mg/kg",,Tmax,18.6 min
CCCCN1C(=O)c2cccc3c(NCCCCCCCCN4CCOCC4)ccc(c23)C1=O,,,DMSO,,,Stokes shift,91 nm
CN(C(=O)C(C)(C)c1cc(C(F)(F)F)cc(C(F)(F)F)c1)c1cnc(N2C[C@H]3COC(O)CN3C[C@H]2CO)cc1-c1ccc(F)cc1CO (stereo partly drawn),,,human liver microsomes,,,fraction unbound in microsomes,0.589
